Assay results pooled from the literature.
Protocols differ between the studies behind these lines. ± marks the error that the study gave.
HCRTR1: Orexin/Hypocretin receptor type 1 (HCRTR1, Homo sapiens, UniProt O43613)
Sequence of UniProt O43613 (whole entry, looked up): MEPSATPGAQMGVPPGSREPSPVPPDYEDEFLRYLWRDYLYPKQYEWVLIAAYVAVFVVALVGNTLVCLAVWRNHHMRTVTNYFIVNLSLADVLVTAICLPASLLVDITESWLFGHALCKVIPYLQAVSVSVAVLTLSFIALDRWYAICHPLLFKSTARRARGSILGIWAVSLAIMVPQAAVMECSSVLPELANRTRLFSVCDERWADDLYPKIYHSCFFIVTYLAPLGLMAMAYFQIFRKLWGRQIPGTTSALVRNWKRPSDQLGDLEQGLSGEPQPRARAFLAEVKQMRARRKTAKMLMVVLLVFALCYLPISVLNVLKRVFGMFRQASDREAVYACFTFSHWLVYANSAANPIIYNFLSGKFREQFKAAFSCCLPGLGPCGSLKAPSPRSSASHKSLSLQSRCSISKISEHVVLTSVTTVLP
Sequence of UniProt O75469 (whole entry, looked up): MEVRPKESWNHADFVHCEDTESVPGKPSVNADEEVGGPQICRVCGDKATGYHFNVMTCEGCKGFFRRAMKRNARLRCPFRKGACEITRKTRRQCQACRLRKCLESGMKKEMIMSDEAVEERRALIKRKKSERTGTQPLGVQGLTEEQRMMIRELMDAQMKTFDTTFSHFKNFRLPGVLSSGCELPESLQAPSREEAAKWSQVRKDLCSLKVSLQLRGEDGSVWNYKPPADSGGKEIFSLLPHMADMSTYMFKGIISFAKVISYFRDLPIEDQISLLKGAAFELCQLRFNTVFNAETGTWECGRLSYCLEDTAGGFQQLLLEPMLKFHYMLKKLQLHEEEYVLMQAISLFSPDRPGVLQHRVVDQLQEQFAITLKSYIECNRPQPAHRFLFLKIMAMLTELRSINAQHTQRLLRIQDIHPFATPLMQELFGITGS

The inhibition of CCOc1ccccc1-c1cc(-c2cccc(Br)c2)nc2ncnc(N)c12 is reported as 86.1% (HT-29; cell growth or viability; 50 µM).
The inhibition of O=C(Nc1ccc(OS(=O)(=O)c2ccc(OC(F)(F)F)cc2)cc1)c1ccccc1 is reported as 49.7% (HeLa; cell growth or viability, MTT; 100 µM, 24 h).
CCN(CC)CC1CCN(c2ncc3ncnc(Nc4ccc(F)c(Cl)c4)c3n2)CC1.Cl.Cl has an inhibition of 98% (A549 EGFR reporter cells; EGFR-induced granule formation; 10 µM, together with: 500 nM EGF; negative means activation).
CCn1c(C)c(/N=N/c2ccc(Cl)cc2)s/c1=N/N=C(\C)c1ccccn1 has an inhibition of 53.7% (MCF7; cell growth or viability, SRB; 100 µg/mL, 48 h).
The inhibition of Cc1ccc(C(=O)Nc2ccc(OS(=O)(=O)Cc3ccccc3)cc2)cc1 is reported as 38.5% (HeLa; cell growth or viability, MTT; 100 µM, 24 h).
With CCCCC1c2cc(OC)c(OC)cc2CCN1CC(=O)NCc1ccccc1 (stereo not shown) the Kb was > 10 µM (HCRTR1; calcium signal, antagonist, fluorescence).
For Nc1ncnc2c1ncn2CCOCP(=O)(O)O, the EC50 was 3.4 ± 1.2 µg/mL (herpes simplex virus 2; cytopathic effect; HEL, clinical isolate NA).
The inhibition of CC(C)Oc1ccc(S(=O)(=O)c2ccc(Oc3cc(OCC(N)=O)c(C(=O)C(Cl)Cl)cc3[N+](=O)[O-])cc2)cc1 is reported as > 95% (NCI-H1650; cell growth or viability, MTT; 2.5 µM).
CCCC[C@H](NC(C)=O)C(=O)N[C@H]1CCC(=O)NC[C@@H](C(=O)N[C@@H](Cc2c[nH]c3ccccc23)C(N)=O)NC(=O)[C@H](CCCNC(=N)N)NC(=O)[C@@H](Cc2ccccc2)NC(=O)[C@H](Cc2c[nH]cn2)NC1=O — result for “Cmax, geometric mean”: 53.5 ng/mL (healthy volunteers, both sexes, plasma; subcutaneous, 3.0 mg single dose).
With O=C(/C=C/C=C/c1ccc2c(c1)OCO2)N1CCCCC1 the EC50 was 2.45 µM (Nuclear receptor subfamily 1 group I member 2 (NR1I2, Homo sapiens, UniProt O75469); CYP3A4 promoter reporter, agonist; LS180 transfected with CYP3A4-luc, no PXR; 24 h).
With O=C(NC(=S)Nc1ccc(-c2nc3ccccc3o2)cc1)c1ccc2ccccc2c1 the inhibition was 65 to 70% (SW480 cells overexpressing claudin-1; anchorage-independent growth, soft agar colony formation; 25 µM; relative to: untreated).
CCN(c1nc(N)c(C(=O)N=C(N)N)nc1Cl)C(C)C gave an inhibition of 20.9% (MDCK; nanoparticle endocytosis; 40 µM, 30 min).
O=C(Nc1ccc(OS(=O)(=O)c2ccc(-c3ccccc3)cc2)cc1)c1ccccc1 gave an inhibition of 5.3% (HeLa; cell growth or viability, MTT; 100 µM, 24 h).
For COc1cc2c(cc1OC)C(CCc1ccc(N(C)C)cc1)N(CC(=O)NCc1ccccc1)CC2 (stereo not shown), the Kb was > 10 µM (HCRTR1; calcium signal, antagonist, fluorescence).
Cc1ccc(C(=O)Nc2ccc(OS(=O)(=O)c3ccccc3F)cc2)cc1 gave an inhibition of 14.3% (HeLa; cell growth or viability, MTT; 100 µM, 24 h).
With CCn1c(-c2ccc(Br)cc2)cs/c1=N/N=C(\C)c1ccccn1 the inhibition was 47.8% (MCF7; cell growth or viability, SRB; 100 µg/mL, 48 h).
For CC(C)[C@H](NC(=O)[C@@H]1CCCN1C(=O)[C@H](CCCNC(=N)N)NC(=O)[C@H](CS)NC(=O)[C@H](Cc1c[nH]c2ccccc12)NC(=O)[C@H](CCCNC(=N)N)NC(=O)[C@@H](Cc1ccccc1)NC(=O)[C@H](Cc1c[nH]cn1)NC(=O)[C@H](CCC(=O)O)NC(=O)[C@H](CS)NC(=O)[C@H](CS)NC(=O)[C@H](CCCCN)NC(=O)[C@@H]1CC(=O)N[C@@H](CCCNC(=N)N)C(=O)N[C@@H](C)C(=O)N[C@@H](CC(=O)O)C(=O)N[C@H](Cc2ccc(O)cc2)C(=O)N1)C(N)=O [technetium-99m labelled], the tissue uptake was 18 ± 3.51 %ID/g (C57 mice, tumor; intravenous, 0.037 MBq, 4 h).
The inhibition of C/C(=N\N=C1/NC(=O)/C(=C\c2ccc(F)cc2)S1)c1ccccn1 is reported as 66.2% (MCF7; cell growth or viability, SRB; 100 µg/mL, 48 h).
With CCCCc1ccc(S(=O)(=O)Oc2ccc(NC(=O)c3ccc(C)cc3)cc2)cc1 the inhibition was 19.1% (HeLa; cell growth or viability, MTT; 100 µM, 24 h).
The Hill coefficient of O=c1ccc2ccccc2o1 is reported as 1.57 ± 0.35 (CYP2A6 human; 7-hydroxylation, substrate; human liver microsomes; CYP2A6 added 54 pmol/mg, ratio 0.125).
C/C(=N\N=C1/NC(=O)C(C)S1)c1ccccn1 (stereo not shown) has an inhibition of > 70% (MCF7; cell growth, SRB; 100 µg/mL, 48 h).
COc1ccccc1-c1cc(-c2cccc(Br)c2)nc(N)c1C#N has an inhibition of ≤ 50% (HT-29; cell growth or viability; 50 µM).

A few entries again:
Cc1ccc(C(=O)Nc2ccc(OS(=O)(=O)c3ccccc3F)cc2)cc1 gave an inhibition of 14.3% (HeLa; cell growth or viability, MTT; 100 µM, 24 h).
With CCn1c(-c2ccc(Br)cc2)cs/c1=N/N=C(\C)c1ccccn1 the inhibition was 47.8% (MCF7; cell growth or viability, SRB; 100 µg/mL, 48 h).
